Published values gathered from unrelated publications.
Lines come from different studies, so protocols differ. ± marks the error that the study gave.

CC1(C)[C@@H](O)CC[C@]2(C)[C@H]3C(=O)C=C4[C@@H]5C[C@@](C)(C(=O)O)CC[C@]5(C)CC[C@@]4(C)[C@]3(C)CC[C@@H]12 — IC50 (KARPAS-299; cell growth or viability, MTT): > 40 µM
CCn1c[n+](CC)c2ccccc21 — IC50 (RC-124 kidney epithelial; cell proliferation, crystal violet staining; 96 h): 57 ± 8.9 µM
CCCCCCCCCC(=O)N[C@@H](Cc1ccccc1)C(=O)N[C@@H](Cc1ccccc1)C(=O)N[C@@H](Cc1ccccc1)C(=O)N[C@@H](Cc1ccccc1)C(=O)N[C@@H](CCCCN)C(=O)N[C@@H](CCCCN)C(=O)N[C@@H](CCCCN)C(=O)N[C@@H](CCCCN)C(=O)N[C@@H](CCCCN)C(N)=O — IC50 (HCEC; cytotoxicity): 27.5 µg/mL
[Fe+2].c1cc[cH-]c1.c1ccc(P(=NCc2ccccn2)(c2ccccc2)[c-]2cccc2)cc1 — IC50 (A2780cisR (cisplatin-resistant); cell growth, MTT; 74 h, 1% DMSO): 30.3 ± 1.6 µM
COc1cc(-c2cc(=O)c3c(O)cc(OC4OC(COC5OC(C)C(O)C(O)C5O)C(O)C(O)C4O)cc3o2)ccc1O (stereo not shown) — IC50 (AML12; cell growth or viability, resazurin; 72 h): > 100 µM
CC(C)(C)OC(=O)C(NCc1ccc(CCC(=O)NO)nc1)C1CCCCC1 (stereo not shown) — IC50 (human CD14+ monocytes; M-CSF differentiation; 4 h then washout, with: M-CSF): > 10 µM
COc1ccc(/C=C/C2=[N+]3C(=C(COC(C)=O)c4c(C)cc(/C=C/c5ccc(OC)cc5)n4[B-]3(F)F)C(C)=C2)cc1 — IC50 (RPE-1; phototoxicity, resazurin; with: 645 nm light, 9.00 J/cm2): 2.9 ± 0.4 µM
CC(C)c1cccc(C(C)C)c1-n1ccn(-c2c(C(C)C)cccc2C(C)C)c1=[Se].[Cl][Ag] — IC50 (LoVo MDR; MTT; 72 h): 5.4 ± 1.2 µM
[Cl][Pd-]1([Cl])[S]C(Nc2ccccc2)=N[N+]1=Cc1ccc(-c2ccccc2)s1 — IC50 (CEM human lymphocytes; cell proliferation): 168 µM
CCn1[c]([Au-][Cl])[n+](CC)c2ccc(C(=O)OC)cc21 — IC50 (RC-124 kidney epithelial; cell proliferation, crystal violet staining; 96 h): 7.2 ± 3.7 µM
CCCC(CCC)C(=O)[O][Pt]([NH2])([NH2])([Cl])([Cl])[O]C(=O)c1ccccc1OC(C)=O — IC50 (C13 cisplatin-resistant; cytotoxicity, MTT; 72 h): 0.77 ± 0.04 µM
C=CC(OC(C)=O)c1ccccc1 (stereo not shown) — IC50 (RT-112; MTT; 24 h): > 50 µM
Cc1cc(NC(=O)c2cccc(NC(=O)/C(C#N)=C/C(C)(C)C)c2)ccc1Nc1nccc(-c2cccnc2)n1 — IC50 (SH-SY5Y MKK7-ACT; c-Jun phosphorylation, inhibitor, HTRF, item: phospho-c-Jun Ser63; 6 h, with: doxycycline): 4.97 ± 0.62 µM
NS(=O)(=O)c1ccc(NC(=O)NN[C@@H]2OC[C@H](O)[C@H](O)[C@H]2O)cc1 — IC50 (HCEC; cell growth or viability, MTT; 96 h): > 100 µM
C=CCc1ccc(O)c(-c2cc(CC=C)ccc2OCCCC[P+](c2ccccc2)(c2ccccc2)c2ccccc2)c1 — IC50 (UACC-62; cell growth, IncuCyte confluence): 2.5 µM
C=C1C(=O)[C@@]23CC[C@@H]4[C@](C)(COC(C)=O)CCC[C@@]4(COC(C)=O)[C@@H]2[C@@H](O)C[C@@H]1C3 — IC50 (786-0; cell growth or viability, MTT): > 20 µM
S=c1n(-c2ccccc2)c2c3ccccc3nc3[n+]2[n]1[Ir-3]12([S]3)([c]3ccccc3-c3sc4ccccc4[n+]31)[c]1ccccc1-c1sc3ccccc3[n+]12 — IC50 (MRC9; cell viability, MTT; dark): > 50 µM
CNC(=O)C1CCN(c2ccccc2NC(=O)c2ccc(-c3cc(O)ccc3C)c(C)n2)CC1 — IC50 (12Z; item: PTGS2 mRNA; 3 h, 30 min pretreatment, with: IL-1β 0.05 ng/mL): 1.3 µM
Cc1ccc2oc(-c3c4c(N)n[nH]c(=O)c4nn3-c3ccccc3)c(C)c2c1 — IC50 (SNU-16; cell growth or viability): > 1 µM
CC1=C2[O][Ru-]([Cl])[O+]=C2C=CN1CCCCCCCCCCCCN1C=CC2=[O+][Ru-]([Cl])[O]C2=C1C.Cc1ccc(C(C)C)cc1.Cc1ccc(C(C)C)cc1 — IC50 (SISO-oxo oxoplatin-resistant; crystal violet; 96 h): 2.5 ± 1.9 µM
CC1=CC(C)=[N+]2C1=C(CO)c1c(C)cc(C)n1[B-]2(C)C — IC50 (RPE-1; cell growth or viability, resazurin; dark): > 100 µM
Cc1ccnc(Oc2ccc(-c3c(-c4ccc(NC(=O)C(C)C)cc4)n(C)c4ncnc(N)c34)cc2F)n1 — IC50 (SNU-16; cell growth or viability, ATP luminescence; 96 h): 4.87 µM
CC(=O)c1cnc(N)nc1N1CC[C@H]1c1nn2ccc(Cl)c2c(=O)n1-c1ccccc1 — IC50 (human CD4 T cells; Th17 differentiation, item: IL-17A): 0.063 µM
C=CC(OC(C)=O)c1ccc(OC)cc1 (stereo not shown) — IC50 (EJ-28; MTT; 24 h): > 50 µM
O=[N+]([O-])c1ccc(C=[N+]2N=C(Nc3ccccc3)[S][Pd-]2([Cl])[Cl])s1 — IC50 (CRFK; cell growth or viability): 39.1 µM
Cc1cc(C#N)cc(C)c1Oc1cc(Nc2ccc(C#N)cc2)nc2ccncc12 — IC50 (MOLT-3; 48 h): > 128 µM
Cc1ccc(S(=O)(=O)c2c(-c3ccccc3)c3c(C)c4ccccc4n3c3ccccc23)cc1 — IC50 (LS174T; cell growth or viability, MTT; 72 h): > 100 µM
CN1CCN(c2ccc(Nc3ncc(Cl)c(Nc4ccccc4NS(=O)(=O)C4CC4)n3)cc2)CC1 — IC50 (Ba/F3 EGFR 19del/T790M/C797S; cell growth, CCK-8; 48 h): 0.025 µM
CC(C)=CCC1=C([O-])C(=O)c2ccccc2C1=O.O=[N+]([O-])[O-].[Cu+2].c1ccc(-c2cccc(-c3ccccn3)n2)nc1 — IC50 (MRC5 normal fibroblasts; cell viability, MTT; 24 h): 44.1 ± 2.8 µM
Cc1c(C)c(C)[c-](C)c1C.OCc1ccnc(-c2[c-]cccc2)c1.[Cl-].[Ir+3] — IC50 (A2780 cells; cell growth, SRB; 24 h exposure, 72 h recovery): 47 ± 1 µM
O=C1/C(=C/c2ccc(B(O)O)cc2)CC/C1=C\c1ccc(B(O)O)cc1 — IC50 (MCF7/HER2; cytotoxicity, MTT; 24 h): 62 ± 4.9 µM
Cc1c(C)c(C)[c-](C)c1C.O=Cc1ccc(-c2[c-]cccc2)nc1.[Cl-].[Ir+3] — IC50 (A2780 cells; cell growth, SRB; 24 h exposure, 72 h recovery): 4.4 ± 0.4 µM
C=C[CH2][Pd-]([Cl])[Cl].CC(C)c1cccc(C(C)C)c1-n1c[n+](-c2c(C(C)C)cccc2C(C)C)c2c1-c1cccc3cccc-2c13 — IC50 (C13 cisplatin-resistant; cell viability, MTT; 72 h): 3.5 ± 0.7 µM
O=C1C(Cl)=C(Cl)C(=O)c2c(O)ccc(O)c21 — IC50 (MOLT-3; cell growth or viability, XTT; 48 h): 0.27 µM
C=CC(OC(C)=O)c1cc(OC)c(OC(C)=O)c(OC)c1 (stereo not shown) — IC50 (RT-112; MTT; 24 h): > 50 µM
CC1CC(=O)N(CCCCCN)N=C1c1ccc(NC(=O)N2Cc3ccncc3C2)cc1 (stereo not shown) — IC50 (A549-C4.4a; cell viability, CellTiter-Glo): 0.097 µM
Cc1cc(C#N)cc(C)c1Oc1cc(Nc2ccc(C#N)cn2)nc2ccncc12 — IC50 (MOLT-3; 48 h): 106 ± 20.9 µM
CCCCCCCCC=CCCCCCCCC(=O)OCC1OC(n2ccc(N)nc2=O)C(F)(F)C1O (stereo not shown) — IC50 (THX; cell growth; with: NBMPR 100 µM): 0.0063 ± 0.0051 µM
NC(=O)c1cccnc1.O=c1[nH]cc(F)c(=O)[nH]1.O=c1[nH]cc(F)c(=O)[nH]1.O=c1[nH]cc(F)c(=O)[nH]1 — IC50 (JEG-3; cell growth or viability, MTT): 0.444 µM
Cc1cnc(Nc2cc(C)c(C)c(C)c2)nc1Nc1ccc2oc(=O)[nH]c2c1 — IC50 (human CD14+ monocytes; CCL17 release; with: TSLP): 0.0817 µM
CCN(CC)C1=[S+][Au-2]2([S]1)[c]1ccccc1-c1cccc[n+]12.F[P-](F)(F)(F)(F)F (stereo not shown) — IC50 (BT-333 glioblastoma; MTT; 72 h): 0.68 ± 0.01 µM
Clc1ccc(C=[N+]2N=C(Nc3ccccc3)[S][Pt-]2([Cl])[Cl])s1 — IC50 (CRFK; cell growth or viability): 15.6 µM
CCn1nc(Cl)c2c1-c1cnc(N)c(c1)O[C@H](C)c1cc(F)ccc1-c1nn(C)cc1C2 — IC50 (ALK-driven cell lines; cell viability; range over lines): 0.002 to 0.019 µM
Cc1ccc(NC(=O)c2c(C)oc3ccc(O)c(CN4CCCCCC4)c23)cc1 — IC50 (L-363; cell growth or viability, MTS; 72 h): 5.8 µM
CC(=O)[O-].O.O.O.O.[Mn+2].[O-]c1ccc(Br)cc1C=NCCN1CCOCC1 — IC50 (NHDF normal fibroblasts; cell viability, MTT; 72 h): 61.1 µg/mL
Brc1ccc(Nc2nc(NN=Cc3c[nH]c4ccccc34)nc(N3CCOCC3)n2)cc1 — IC50 (A549 and SK-BR-3; cell growth; 120 h): 0.1 to 0.4 µM
C=CC(=O)N1CCCC(n2c(=O)c3ncccc3n(Cc3ccc(Oc4ccccc4)cc3)c2=O)C1 (stereo not shown) — IC50 (primary ALL cells; cell viability; 72 h, sensitive samples, MSC co-culture): 0.3 to 4.6 µM
O=[N+]([O-])c1ccc(C=[N+]2N=C(Nc3ccccc3)[S][Pt-]2([Cl])[Cl])s1 — IC50 (CRFK; cell growth or viability): 7.5 µM
[Cl][Pd-2]1([Cl])[N+](=P(c2ccccc2)(c2ccccc2)c2ccccc2)Cc2cccc[n+]21 — IC50 (A2780cisR (cisplatin-resistant); cell growth, MTT; 74 h, 1% DMSO): 6.2 ± 0.3 µM

Repeated from above:
Clc1ccc(C=[N+]2N=C(Nc3ccccc3)[S][Pt-]2([Cl])[Cl])s1 — IC50 (CRFK; cell growth or viability): 15.6 µM
CCn1nc(Cl)c2c1-c1cnc(N)c(c1)O[C@H](C)c1cc(F)ccc1-c1nn(C)cc1C2 — IC50 (ALK-driven cell lines; cell viability; range over lines): 0.002 to 0.019 µM
Cc1ccc(NC(=O)c2c(C)oc3ccc(O)c(CN4CCCCCC4)c23)cc1 — IC50 (L-363; cell growth or viability, MTS; 72 h): 5.8 µM
CC(=O)[O-].O.O.O.O.[Mn+2].[O-]c1ccc(Br)cc1C=NCCN1CCOCC1 — IC50 (NHDF normal fibroblasts; cell viability, MTT; 72 h): 61.1 µg/mL
Brc1ccc(Nc2nc(NN=Cc3c[nH]c4ccccc34)nc(N3CCOCC3)n2)cc1 — IC50 (A549 and SK-BR-3; cell growth; 120 h): 0.1 to 0.4 µM
C=CC(=O)N1CCCC(n2c(=O)c3ncccc3n(Cc3ccc(Oc4ccccc4)cc3)c2=O)C1 (stereo not shown) — IC50 (primary ALL cells; cell viability; 72 h, sensitive samples, MSC co-culture): 0.3 to 4.6 µM
O=[N+]([O-])c1ccc(C=[N+]2N=C(Nc3ccccc3)[S][Pt-]2([Cl])[Cl])s1 — IC50 (CRFK; cell growth or viability): 7.5 µM
[Cl][Pd-2]1([Cl])[N+](=P(c2ccccc2)(c2ccccc2)c2ccccc2)Cc2cccc[n+]21 — IC50 (A2780cisR (cisplatin-resistant); cell growth, MTT; 74 h, 1% DMSO): 6.2 ± 0.3 µM
